Measured values collected from several papers.
Each numbered part is a random draw from the data of one study; scales do not carry over between parts. Several values in a cell are separate wells, animals, samples, runs or records. ± gives the spread as reported.
Chain of UniProt P41145 (whole entry, looked up): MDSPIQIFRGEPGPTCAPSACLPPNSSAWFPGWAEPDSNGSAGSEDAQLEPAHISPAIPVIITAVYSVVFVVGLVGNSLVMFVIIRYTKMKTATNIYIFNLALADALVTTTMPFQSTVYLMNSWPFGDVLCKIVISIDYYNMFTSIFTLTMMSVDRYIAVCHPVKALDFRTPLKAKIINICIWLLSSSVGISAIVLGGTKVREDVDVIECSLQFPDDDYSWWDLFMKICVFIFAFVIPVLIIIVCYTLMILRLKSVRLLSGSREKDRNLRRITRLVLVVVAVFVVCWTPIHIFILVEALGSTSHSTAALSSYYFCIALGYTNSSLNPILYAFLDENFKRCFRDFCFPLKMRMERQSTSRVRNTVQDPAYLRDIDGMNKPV
Chain of UniProt P20813 (whole entry, looked up): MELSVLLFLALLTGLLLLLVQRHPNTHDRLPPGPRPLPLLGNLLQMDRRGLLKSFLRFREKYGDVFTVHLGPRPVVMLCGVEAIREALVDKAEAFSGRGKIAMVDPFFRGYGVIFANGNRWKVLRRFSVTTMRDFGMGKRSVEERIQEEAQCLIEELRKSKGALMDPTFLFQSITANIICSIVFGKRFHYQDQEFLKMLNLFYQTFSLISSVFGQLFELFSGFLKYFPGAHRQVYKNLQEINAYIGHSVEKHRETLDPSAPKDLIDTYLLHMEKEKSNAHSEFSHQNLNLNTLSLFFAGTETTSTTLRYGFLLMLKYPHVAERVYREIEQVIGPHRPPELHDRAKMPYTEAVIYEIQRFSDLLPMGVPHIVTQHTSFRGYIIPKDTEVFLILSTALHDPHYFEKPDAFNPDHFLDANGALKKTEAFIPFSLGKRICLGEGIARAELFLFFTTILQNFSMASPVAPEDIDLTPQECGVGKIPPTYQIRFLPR
Chain of UniProt P05177 (whole entry, looked up): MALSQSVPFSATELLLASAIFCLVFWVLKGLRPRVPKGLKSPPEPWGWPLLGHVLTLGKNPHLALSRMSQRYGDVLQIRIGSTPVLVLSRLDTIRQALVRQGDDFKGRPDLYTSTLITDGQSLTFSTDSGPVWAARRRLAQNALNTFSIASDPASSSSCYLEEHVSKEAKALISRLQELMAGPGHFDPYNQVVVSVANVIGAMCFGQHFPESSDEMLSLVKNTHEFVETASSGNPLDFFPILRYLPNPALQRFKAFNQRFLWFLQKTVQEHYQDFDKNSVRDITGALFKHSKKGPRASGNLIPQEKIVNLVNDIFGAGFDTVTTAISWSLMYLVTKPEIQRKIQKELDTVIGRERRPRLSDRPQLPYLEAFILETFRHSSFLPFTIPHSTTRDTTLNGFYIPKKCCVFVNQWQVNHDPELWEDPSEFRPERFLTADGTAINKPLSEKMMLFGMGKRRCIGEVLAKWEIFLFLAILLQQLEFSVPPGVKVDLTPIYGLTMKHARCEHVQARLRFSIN

Set 1
Structure (SMILES): C#CCN1C(=O)C(O)(C(=O)O)Oc2cc(F)ccc21 (stereo not shown)
Organism: Arabidopsis thaliana
Strain: Col-0
Notes: seed germination
tested at | root length [cm]
6.25 µg/mL | 0.94
3.125 µg/mL | 1.04
12.5 µg/mL | 0.585
25 µg/mL | 0.361
100 µg/mL | 0.01
50 µg/mL | 0.154

Set 2
SMILES: CCCCC[C@@H](O)CC(=O)N[C@H]1COC(=O)[C@H](CO)NC(=O)[C@H](Cc2ccccc2)NC(=O)[C@@H](Cc2c[nH]c3ccccc23)NC(=O)[C@@H](C(C)O)NC(=O)[C@H](CC(N)=O)NC(=O)[C@@H](C(C)C)NC(=O)[C@H](CC(C)C)NC(=O)[C@@H](Cc2ccc(O)cc2)N(C)C(=O)CNC(=O)[C@H](CO)NC(=O)[C@@H](CC(N)=O)NC1=O (stereo partly shown)
Organism: Staphylococcus aureus
Strain: USA300
Tested at: 2 x MIC
time | viable cells
120 min | 1100 CFU/mL and 1200 CFU/mL and 1300 CFU/mL
300 min | 600 CFU/mL and 700 CFU/mL and 400 CFU/mL
30 min | 2900 CFU/mL and 3000 CFU/mL and 2600 CFU/mL
180 min | 1200 CFU/mL and 800 CFU/mL
360 min | 400 CFU/mL and 700 CFU/mL and 500 CFU/mL

Set 3
Compound: Cn1cc(-c2cccc(CN3CCC4(CC3)COc3c4ccc4c3CN([C@H]3CCC(=O)NC3=O)C4=O)c2)cn1
Read-out: enzyme activity
Matrix: human liver microsomes
Baseline: negative control
CYP2D6: Cytochrome P450 2D6 (CYP2D6, Homo sapiens, UniProt P10635)
Chain of UniProt P10635 (whole entry, looked up): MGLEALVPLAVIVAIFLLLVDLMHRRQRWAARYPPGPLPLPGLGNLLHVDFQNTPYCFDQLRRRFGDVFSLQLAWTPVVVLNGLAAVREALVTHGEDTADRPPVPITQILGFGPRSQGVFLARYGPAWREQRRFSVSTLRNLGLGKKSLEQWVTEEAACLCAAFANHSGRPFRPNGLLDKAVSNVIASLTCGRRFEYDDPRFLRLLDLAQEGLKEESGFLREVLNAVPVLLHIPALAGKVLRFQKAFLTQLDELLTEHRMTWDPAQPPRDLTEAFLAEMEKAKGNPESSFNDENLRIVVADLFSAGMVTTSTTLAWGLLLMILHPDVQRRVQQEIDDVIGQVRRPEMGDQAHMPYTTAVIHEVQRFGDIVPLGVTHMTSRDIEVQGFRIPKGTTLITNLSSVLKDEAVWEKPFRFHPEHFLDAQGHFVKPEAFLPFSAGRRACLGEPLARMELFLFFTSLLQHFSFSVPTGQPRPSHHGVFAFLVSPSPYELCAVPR
CYP3A4: Cytochrome P450 3A4 (CYP3A4, Homo sapiens, UniProt P08684)
Chain of UniProt P08684 (whole entry, looked up): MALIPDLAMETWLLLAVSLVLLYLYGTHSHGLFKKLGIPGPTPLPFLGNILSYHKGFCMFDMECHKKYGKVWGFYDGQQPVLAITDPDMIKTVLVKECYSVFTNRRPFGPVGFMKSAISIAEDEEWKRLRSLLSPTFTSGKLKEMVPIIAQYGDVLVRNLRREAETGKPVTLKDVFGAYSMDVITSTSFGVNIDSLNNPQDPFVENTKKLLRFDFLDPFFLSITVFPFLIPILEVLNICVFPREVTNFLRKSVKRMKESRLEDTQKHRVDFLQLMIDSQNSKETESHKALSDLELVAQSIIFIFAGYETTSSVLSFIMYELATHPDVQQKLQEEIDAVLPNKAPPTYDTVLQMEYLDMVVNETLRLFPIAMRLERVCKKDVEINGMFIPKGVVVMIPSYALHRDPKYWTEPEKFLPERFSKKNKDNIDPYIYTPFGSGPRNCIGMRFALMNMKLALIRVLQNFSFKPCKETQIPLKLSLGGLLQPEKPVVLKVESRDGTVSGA
CYP2C8: Cytochrome P450 2C8 (CYP2C8, Homo sapiens, UniProt P10632)
Chain of UniProt P10632 (whole entry, looked up): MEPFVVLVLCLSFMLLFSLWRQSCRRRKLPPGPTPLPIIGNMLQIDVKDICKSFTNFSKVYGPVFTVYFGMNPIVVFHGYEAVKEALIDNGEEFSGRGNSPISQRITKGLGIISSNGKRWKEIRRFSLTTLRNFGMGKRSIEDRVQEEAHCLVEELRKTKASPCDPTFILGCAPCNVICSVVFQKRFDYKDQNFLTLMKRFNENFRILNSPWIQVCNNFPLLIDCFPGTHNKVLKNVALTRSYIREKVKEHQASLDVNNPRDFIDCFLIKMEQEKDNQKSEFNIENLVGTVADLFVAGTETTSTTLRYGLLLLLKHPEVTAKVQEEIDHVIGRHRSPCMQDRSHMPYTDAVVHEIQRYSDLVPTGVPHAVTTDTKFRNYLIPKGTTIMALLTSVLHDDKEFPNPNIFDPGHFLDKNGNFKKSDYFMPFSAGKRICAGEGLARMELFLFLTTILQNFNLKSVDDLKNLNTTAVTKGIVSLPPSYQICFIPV
target | tested at | added | remaining activity [%]
CYP2D6 | 0.0137 µM |  | 100
CYP3A4 | 0.37 µM | testosterone substrate | 91.3
Cytochrome P450 1A2 (CYP1A2, Homo sapiens, UniProt P05177) | 0.0137 µM |  | 91.6
CYP2C8 | 0.37 µM |  | 106
CYP2C8 | 0.0137 µM |  | 106
CYP2D6 | 1.11 µM |  | 105
CYP2C8 | 10.00 µM |  | 112
CYP3A4 | 0.04 µM | midazolam substrate | 102
Cytochrome P450 2B6 (CYP2B6, Homo sapiens, UniProt P20813) | 0.0137 µM |  | 89.7
CYP2D6 | 0.37 µM |  | 103

Mixed results
OPRD1 with β-arrestin2: Delta-type opioid receptor, with β-arrestin2 (OPRD1, Homo sapiens, UniProt P41143)
Chain of UniProt P41143 (whole entry, looked up): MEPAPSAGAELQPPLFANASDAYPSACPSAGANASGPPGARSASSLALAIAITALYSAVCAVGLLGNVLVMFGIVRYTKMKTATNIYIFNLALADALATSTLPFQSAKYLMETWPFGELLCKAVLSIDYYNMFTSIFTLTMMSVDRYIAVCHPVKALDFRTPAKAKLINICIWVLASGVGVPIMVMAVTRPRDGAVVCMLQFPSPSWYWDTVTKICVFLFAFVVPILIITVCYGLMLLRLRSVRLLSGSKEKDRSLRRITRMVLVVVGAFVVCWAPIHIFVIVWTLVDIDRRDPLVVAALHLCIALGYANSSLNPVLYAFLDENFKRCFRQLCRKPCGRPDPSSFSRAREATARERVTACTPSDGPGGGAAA
SMILES | tested on | assay | test system | setting | how to read | endpoint | value
CCCCCCCCN1CCC23c4c5ccc(O)c4OC2c2nc4ccccc4cc2CC3(O)C1C5 (stereo not shown) | OPRD1 with β-arrestin2 |  | human cells |  |  | EC50 | 1000 nM
NC(=O)NCCCCCCN1CCC23c4c5ccc(O)c4OC2c2nc4ccccc4cc2CC3(O)C1C5 (stereo not shown) | OPRD1 with β-arrestin2 |  | human cells |  |  | Emax | 20 ± 4%
N=C(N)NCCCCCCN1CC[C@]23c4c5ccc(O)c4O[C@H]2c2[nH]c4ccccc4c2C[C@@]3(O)[C@H]1C5 | Kappa-type opioid receptor, with Gi1 (OPRK1, Homo sapiens, UniProt P41145) |  | human cells |  |  | Emax | 36 ± 5%
N=C(N)NCCCCCCN1CCC23c4c5ccc(O)c4OC2c2nc4ccccc4cc2CC3(O)C1C5 (stereo not shown) |  | modified Racine scale | C57BL/6J mice, male | intracerebroventricular, 100 nmol, 55 min | direction not given | seizure score | 0

A few entries again (set 2):
time | viable cells
360 min | 400 CFU/mL and 700 CFU/mL and 500 CFU/mL
30 min | 2900 CFU/mL and 3000 CFU/mL and 2600 CFU/mL
